Published values of several laboratories.
Every numbered part comes from another study and shows a few of its results, in no order. Several values in a cell are separate wells, animals, samples, runs or records.
Sequence of UniProt Q13555 (whole entry, looked up): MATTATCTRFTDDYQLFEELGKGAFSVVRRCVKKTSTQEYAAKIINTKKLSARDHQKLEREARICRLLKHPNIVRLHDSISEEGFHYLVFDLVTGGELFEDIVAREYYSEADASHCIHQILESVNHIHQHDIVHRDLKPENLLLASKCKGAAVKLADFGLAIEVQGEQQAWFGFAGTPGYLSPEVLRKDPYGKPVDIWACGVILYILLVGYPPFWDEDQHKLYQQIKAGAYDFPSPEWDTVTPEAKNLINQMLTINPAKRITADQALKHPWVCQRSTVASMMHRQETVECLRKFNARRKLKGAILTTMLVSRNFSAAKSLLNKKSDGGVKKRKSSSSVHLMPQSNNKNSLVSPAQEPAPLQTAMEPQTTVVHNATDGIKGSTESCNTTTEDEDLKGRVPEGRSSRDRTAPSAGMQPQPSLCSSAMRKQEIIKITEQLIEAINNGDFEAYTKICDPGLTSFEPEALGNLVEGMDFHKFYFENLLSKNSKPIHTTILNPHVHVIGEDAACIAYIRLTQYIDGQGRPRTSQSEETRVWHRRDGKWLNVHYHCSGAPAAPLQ
Sequence of UniProt O00329 (whole entry, looked up): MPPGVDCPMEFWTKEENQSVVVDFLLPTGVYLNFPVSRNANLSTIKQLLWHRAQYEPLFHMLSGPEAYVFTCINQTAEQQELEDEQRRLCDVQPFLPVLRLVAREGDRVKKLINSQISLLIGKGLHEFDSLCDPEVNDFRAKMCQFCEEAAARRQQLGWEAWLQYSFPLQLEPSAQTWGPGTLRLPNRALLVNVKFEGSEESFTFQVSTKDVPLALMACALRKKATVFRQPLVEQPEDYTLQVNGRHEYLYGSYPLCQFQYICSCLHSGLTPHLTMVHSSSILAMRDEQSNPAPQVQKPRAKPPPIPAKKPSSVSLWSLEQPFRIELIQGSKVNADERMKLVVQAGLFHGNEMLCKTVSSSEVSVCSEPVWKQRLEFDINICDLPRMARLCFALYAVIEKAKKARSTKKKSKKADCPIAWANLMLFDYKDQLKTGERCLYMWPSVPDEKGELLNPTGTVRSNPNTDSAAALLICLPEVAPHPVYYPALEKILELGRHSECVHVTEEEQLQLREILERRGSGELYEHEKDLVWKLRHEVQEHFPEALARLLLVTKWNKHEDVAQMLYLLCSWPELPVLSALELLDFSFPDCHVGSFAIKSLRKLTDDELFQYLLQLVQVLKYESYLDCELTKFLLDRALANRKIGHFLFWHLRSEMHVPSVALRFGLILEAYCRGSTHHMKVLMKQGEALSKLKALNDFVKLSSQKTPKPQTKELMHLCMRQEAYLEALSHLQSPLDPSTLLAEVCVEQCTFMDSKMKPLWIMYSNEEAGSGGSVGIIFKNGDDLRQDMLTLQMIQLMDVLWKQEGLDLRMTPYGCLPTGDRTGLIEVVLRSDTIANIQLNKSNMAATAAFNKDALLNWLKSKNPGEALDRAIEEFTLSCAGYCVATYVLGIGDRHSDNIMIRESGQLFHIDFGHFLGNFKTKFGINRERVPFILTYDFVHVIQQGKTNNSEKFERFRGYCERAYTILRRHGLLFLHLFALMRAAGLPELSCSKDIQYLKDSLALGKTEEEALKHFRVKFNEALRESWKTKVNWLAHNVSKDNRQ
Sequence of UniProt Q02156 (whole entry, looked up): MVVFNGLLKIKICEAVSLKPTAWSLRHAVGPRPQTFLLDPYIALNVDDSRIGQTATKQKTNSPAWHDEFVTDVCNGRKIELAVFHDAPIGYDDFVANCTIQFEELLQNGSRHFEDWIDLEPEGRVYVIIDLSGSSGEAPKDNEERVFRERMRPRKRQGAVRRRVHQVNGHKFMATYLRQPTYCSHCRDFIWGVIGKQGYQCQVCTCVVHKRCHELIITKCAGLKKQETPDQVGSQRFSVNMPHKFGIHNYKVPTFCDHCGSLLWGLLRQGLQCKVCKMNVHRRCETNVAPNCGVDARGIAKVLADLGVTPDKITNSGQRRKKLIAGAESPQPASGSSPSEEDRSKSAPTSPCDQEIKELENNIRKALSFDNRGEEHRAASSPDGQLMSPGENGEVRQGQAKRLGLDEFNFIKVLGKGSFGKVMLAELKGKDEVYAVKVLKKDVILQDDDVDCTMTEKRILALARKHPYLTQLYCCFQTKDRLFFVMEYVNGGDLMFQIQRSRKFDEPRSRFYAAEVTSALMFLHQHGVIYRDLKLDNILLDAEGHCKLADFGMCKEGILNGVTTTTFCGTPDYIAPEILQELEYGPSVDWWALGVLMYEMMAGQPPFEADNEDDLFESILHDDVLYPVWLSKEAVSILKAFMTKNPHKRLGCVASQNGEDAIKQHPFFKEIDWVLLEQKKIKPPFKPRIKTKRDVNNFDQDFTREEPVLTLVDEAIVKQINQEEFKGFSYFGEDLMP
Sequence of UniProt P36507 (whole entry, looked up): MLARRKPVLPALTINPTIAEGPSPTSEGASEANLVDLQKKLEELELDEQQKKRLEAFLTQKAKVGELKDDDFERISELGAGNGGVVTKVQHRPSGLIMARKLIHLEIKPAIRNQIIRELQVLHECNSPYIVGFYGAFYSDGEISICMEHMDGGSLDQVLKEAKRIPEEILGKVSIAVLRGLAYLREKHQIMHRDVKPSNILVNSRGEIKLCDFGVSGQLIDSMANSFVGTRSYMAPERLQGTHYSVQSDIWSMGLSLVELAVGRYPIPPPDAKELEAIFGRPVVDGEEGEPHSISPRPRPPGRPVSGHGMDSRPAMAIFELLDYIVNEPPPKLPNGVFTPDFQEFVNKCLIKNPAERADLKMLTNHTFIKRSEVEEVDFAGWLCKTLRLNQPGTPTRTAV
Sequence of UniProt Q9UBF8 (whole entry, looked up): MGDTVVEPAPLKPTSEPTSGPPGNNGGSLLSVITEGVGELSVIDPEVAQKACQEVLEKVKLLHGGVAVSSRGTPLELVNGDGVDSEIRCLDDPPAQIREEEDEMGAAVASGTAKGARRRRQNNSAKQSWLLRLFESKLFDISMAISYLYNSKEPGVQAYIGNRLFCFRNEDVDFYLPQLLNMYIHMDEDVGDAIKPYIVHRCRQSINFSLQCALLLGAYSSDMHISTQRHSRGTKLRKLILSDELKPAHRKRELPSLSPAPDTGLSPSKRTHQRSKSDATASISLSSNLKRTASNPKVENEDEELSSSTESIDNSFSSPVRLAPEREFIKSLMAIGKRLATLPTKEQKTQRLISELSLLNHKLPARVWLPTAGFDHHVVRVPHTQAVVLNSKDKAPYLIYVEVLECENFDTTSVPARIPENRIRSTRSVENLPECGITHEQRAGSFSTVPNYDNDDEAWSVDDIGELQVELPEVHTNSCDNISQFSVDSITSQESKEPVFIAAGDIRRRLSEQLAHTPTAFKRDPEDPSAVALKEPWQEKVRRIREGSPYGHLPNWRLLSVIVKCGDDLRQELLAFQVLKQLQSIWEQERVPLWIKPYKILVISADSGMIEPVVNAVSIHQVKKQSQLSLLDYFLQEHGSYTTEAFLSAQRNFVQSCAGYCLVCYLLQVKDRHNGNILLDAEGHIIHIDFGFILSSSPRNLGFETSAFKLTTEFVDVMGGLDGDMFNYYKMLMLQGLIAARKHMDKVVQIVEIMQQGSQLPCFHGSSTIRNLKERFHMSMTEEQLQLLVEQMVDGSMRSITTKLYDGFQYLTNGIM
Sequence of UniProt P15056 (whole entry, looked up): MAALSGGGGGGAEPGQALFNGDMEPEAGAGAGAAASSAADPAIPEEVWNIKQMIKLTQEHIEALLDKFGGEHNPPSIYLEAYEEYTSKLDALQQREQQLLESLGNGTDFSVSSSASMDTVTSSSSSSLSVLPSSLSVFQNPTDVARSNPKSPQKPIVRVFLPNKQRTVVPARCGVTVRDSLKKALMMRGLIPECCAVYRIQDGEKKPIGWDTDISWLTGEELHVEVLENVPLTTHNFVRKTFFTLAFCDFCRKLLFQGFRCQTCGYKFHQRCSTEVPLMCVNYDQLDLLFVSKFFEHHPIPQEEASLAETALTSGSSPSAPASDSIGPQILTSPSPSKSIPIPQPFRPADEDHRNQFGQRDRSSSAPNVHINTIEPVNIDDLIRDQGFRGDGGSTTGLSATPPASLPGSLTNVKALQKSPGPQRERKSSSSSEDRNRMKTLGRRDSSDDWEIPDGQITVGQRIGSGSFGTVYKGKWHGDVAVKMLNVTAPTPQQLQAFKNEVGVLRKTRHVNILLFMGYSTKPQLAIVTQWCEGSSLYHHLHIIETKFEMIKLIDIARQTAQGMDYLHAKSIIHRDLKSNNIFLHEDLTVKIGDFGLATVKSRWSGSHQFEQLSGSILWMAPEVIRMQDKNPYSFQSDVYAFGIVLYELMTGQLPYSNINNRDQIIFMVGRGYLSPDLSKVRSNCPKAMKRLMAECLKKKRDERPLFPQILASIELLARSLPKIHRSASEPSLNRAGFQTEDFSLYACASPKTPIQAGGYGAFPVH

Sample 1
Host: mouse
Matrix: microsomes or S9
Concentration: 2 µM
Time: 0.5 h
Measurement: remaining compound
SMILES = Cc1ccc(S(=O)(=O)NNc2ccc(S(=O)(=O)N(C(C)C)C(C)C)cn2)c(Cl)c1; value = 0%
SMILES = O=C(C1CCCN(S(=O)(=O)c2cc(Cl)ccc2Cl)C1)N1CCCCC1 (stereo not drawn); value = 1.18%
SMILES = CCCc1nc(-c2ccc3ccccc3c2)cc2ccsc12; value = 0.263%
SMILES = Nc1ncc(Br)cc1S(=O)(=O)N1CCC(Oc2ccncc2)C1 (stereo not drawn); value = 19.4%
SMILES = CCOC(=O)c1ccc(Nc2nc3ccc(Cl)cc3n3cnnc23)cc1; value = 67.7%
SMILES = CCOc1cccc(CNC(=O)c2c(OCC(C)C)cc(=O)n3c2CCCCC3)c1; value = 0.0898%
SMILES = C=CCO/N=C/c1cn(CC=C)c2ccc(OC)cc12; value = 0.466%
SMILES = Cc1ccc2c(C)c(C(=O)Nc3ccc4c(c3)NC(=O)C(C)O4)oc2c1 (stereo not drawn); value = 90.4%
SMILES = Cc1nc2c3ccccc3nn2c(C)c1CC(=O)NCCc1c[nH]cn1; value = > 100%
SMILES = CCCn1nccc1-c1csc(S(=O)(=O)NC(C)(C)CC)c1; value = 0.0192%
SMILES = N#Cc1cnn(-c2nnc(-c3ccccc3)c(-c3ccccc3)n2)c1N; value = 72.7%
SMILES = CCOC(=O)c1c(=O)n(-c2ccc(C)cc2)nc2ccccc12; value = 0.104%
SMILES = COc1cc(-c2nn([C@H]3CC[C@H](N4CCN(C(C)=O)CC4)CC3)c3ncnc(N)c23)ccc1NC(=O)c1cc2ccccc2n1C; value = 73.8%
SMILES = Cc1ccccc1/N=C1\Nc2cccc3cccc1c23; value = 4.56%
SMILES = CN(C)CCN(Cc1ccccc1)C(=O)C(C(=O)c1ccc(F)cc1)n1ccccc1=O (stereo not drawn); value = 14.9%
SMILES = CN(Cc1n[nH]c2c1CCCCC2)C(=O)CCC1(Cc2ccc(-c3ccccc3)cc2)CCC(=O)N1 (stereo not drawn); value = 0.317%
SMILES = Oc1ccc(C2c3c(-c4ccc(F)cc4)nnc(O)c3Nc3nnnn32)cc1 (stereo not drawn); value = 65.3%
SMILES = O=S(=O)(c1ccccc1)n1ccc2ncccc21; value = 36.2%
SMILES = OCCNc1nc(Nc2ccc(Cl)cc2)c2nc[nH]c2n1; value = 8.04%
SMILES = CCOc1cc(=O)n2c(c1C(=O)N1CCN(c3cccc(Cl)c3)CC1)CCCC2; value = 14.1%
SMILES = Cc1nc2c(c(C)c(C)n2CCN2CCCC2)c(-c2ccc(Cl)cc2)c1[C@H](OC(C)(C)C)C(=O)O; value = 83.8%

Sample 2
Cell line: A-375
Concentration: 100 µM
Time: 36 h
Measurement: viability
Structure (SMILES) = Cc1ccc(S(=O)(=O)NC(=O)NN2CCCCCC2)cc1; value = 48.4%
Structure (SMILES) = O=C1O[C@H](CO)[C@@H](O)[C@H](O)[C@H]1O; value = 109%
Structure (SMILES) = CC1=C(/C=C/C(C)=C/C=C/C(C)=C/C(=O)O)C(C)(C)CCC1; value = 36%
Structure (SMILES) = C[C@H](CCC(=O)NCCS(=O)(=O)O)[C@H]1CC[C@H]2[C@@H]3[C@@H](O)C[C@@H]4C[C@H](O)CC[C@]4(C)[C@H]3CC[C@]12C; value = 113%
Structure (SMILES) = CC1=C(C(=O)O)N2C(=O)[C@@H](NC(=O)[C@H](N)C3=CCC=CC3)[C@H]2SC1; value = 114%
Structure (SMILES) = CCOC(=O)c1c(CSc2ccccc2)n(C)c2cc(Br)c(O)c(CN(C)C)c12; value = -2.49%
Structure (SMILES) = Clc1ccc(C(Cn2ccnc2)OCc2c(Cl)cccc2Cl)c(Cl)c1 (stereo not drawn); value = 74.8%
Structure (SMILES) = C=CC[C@@H]1/C=C(\C)C[C@H](C)C[C@H](OC)[C@H]2O[C@@](O)(C(=O)C(=O)N3CCCC[C@H]3C(=O)O[C@H](/C(C)=C/[C@@H]3CC[C@@H](O)[C@H](OC)C3)[C@H](C)[C@@H](O)CC1=O)[C@H](C)C[C@@H]2OC; value = 2.38%
Structure (SMILES) = CCOc1nc2cccc(C(=O)OC(C)OC(=O)OC3CCCCC3)c2n1Cc1ccc(-c2ccccc2-c2nnn[nH]2)cc1 (stereo not drawn); value = 2.64%
Structure (SMILES) = C[C@@H](NCCCc1cccc(C(F)(F)F)c1)c1cccc2ccccc12; value = -0.258%
Structure (SMILES) = C[N+](C)(C)CCO; value = 102%
Structure (SMILES) = O=C(CO)[C@@H](O)[C@H](O)[C@H](O)CO; value = 90.6%
Structure (SMILES) = CC(C)/N=c1\cc2n(-c3ccc(Cl)cc3)c3ccccc3nc-2cc1Nc1ccc(Cl)cc1; value = 8.94%
Structure (SMILES) = C/C(=C\C(=O)OCCCCCCCCC(=O)O)C[C@@H]1OC[C@H](C[C@@H]2O[C@H]2[C@@H](C)[C@H](C)O)[C@@H](O)[C@H]1O; value = 96.8%
Structure (SMILES) = CNC(=O)c1cc(Oc2ccc(NC(=O)Nc3ccc(Cl)c(C(F)(F)F)c3)cc2)ccn1; value = 11.1% and 15.7%
Structure (SMILES) = Nc1ccc(S(=O)(=O)Nc2ccc(Cl)nn2)cc1; value = 87.9%
Structure (SMILES) = CC(C)(Sc1cc(C(C)(C)C)c(O)c(C(C)(C)C)c1)Sc1cc(C(C)(C)C)c(O)c(C(C)(C)C)c1; value = 62.6%
Structure (SMILES) = N=C(N)c1ccc(OCCCCCOc2ccc(C(=N)N)cc2)cc1; value = 8.01%
Structure (SMILES) = O=C(O)C1=C(CSc2nnnn2CS(=O)(=O)O)CS[C@@H]2[C@H](NC(=O)[C@H](O)c3ccccc3)C(=O)N12; value = 106%
Structure (SMILES) = NS(=O)(=O)c1cc2c(cc1C(F)(F)F)NC(Cc1ccccc1)NS2(=O)=O (stereo not drawn); value = 79%
Structure (SMILES) = O=C(O)CCCCCCCC(=O)O; value = 104%
Structure (SMILES) = CC1(C)O[C@@H]2[C@@H](CO[C@@]3(COS(N)(=O)=O)OC(C)(C)O[C@@H]23)O1; value = 125%

Sample 3
SMILES: C[C@H](c1cccc(C#N)c1)n1cc(Cl)cc(C(N)=O)c1=N
Read-out: cell-free assay
Technique: competition with immobilised ligand
Concentration: 1 µM
Measurement: remaining binding
target = Casein kinase I isoform gamma-3 (CSNK1G3, Homo sapiens, UniProt Q9Y6M4); value = 100%
target = Serine/threonine-protein kinase B-raf (BRAF, Homo sapiens, UniProt P15056); value = 100%
target = Serine/threonine-protein kinase WNK3 (WNK3, Homo sapiens, UniProt Q9BYP7); value = 80%
target = Calcium/calmodulin-dependent protein kinase type II subunit gamma (CAMK2G, Homo sapiens, UniProt Q13555); value = 100%
target = Tyrosine-protein kinase JAK1, JH2 (JAK1, Homo sapiens, UniProt P23458); value = 92%
target = Receptor-interacting serine/threonine-protein kinase 1 (RIPK1, Homo sapiens, UniProt Q13546); value = 100%
target = Calcium/calmodulin-dependent protein kinase type IV (CAMK4, Homo sapiens, UniProt Q16566); value = 90%
target = Cyclin-dependent kinase 14 (CDK14, Homo sapiens, UniProt O94921); value = 100%
target = Mast/stem cell growth factor receptor Kit (KIT, Homo sapiens, UniProt P10721, D816V); value = 87%
target = Phosphatidylinositol 4-kinase beta (PI4KB, Homo sapiens, UniProt Q9UBF8); value = 100%
target = Protein kinase C epsilon type (PRKCE, Homo sapiens, UniProt Q02156); value = 87%
target = Dual specificity protein kinase CLK3 (CLK3, Homo sapiens, UniProt P49761); value = 100%
target = Epidermal growth factor receptor (EGFR, Homo sapiens, UniProt P00533, del747-752/P753S); value = 97%
target = Serine/threonine-protein kinase 16 (STK16, Homo sapiens, UniProt O75716); value = 100%
target = Hormonally up-regulated neu tumor-associated kinase (HUNK, Homo sapiens, UniProt P57058); value = 89%
target = Phosphatidylinositol 3-kinase catalytic subunit type 3 (PIK3C3, Homo sapiens, UniProt Q8NEB9); value = 78%
target = Death-associated protein kinase 1 (DAPK1, Homo sapiens, UniProt P53355); value = 100%
target = Serine/threonine-protein kinase BRSK2 (BRSK2, Homo sapiens, UniProt Q8IWQ3); value = 85%
target = Insulin receptor (INSR, Homo sapiens, UniProt P06213); value = 97%
target = Activated CDC42 kinase 1 (TNK2, Homo sapiens, UniProt Q07912); value = 83%
target = Leucine-rich repeat serine/threonine-protein kinase 2 (LRRK2, Homo sapiens, UniProt Q5S007, G2019S); value = 100%
target = Phosphatidylinositol 4,5-bisphosphate 3-kinase catalytic subunit delta isoform (PIK3CD, Homo sapiens, UniProt O00329); value = 99%
target = Dual specificity mitogen-activated protein kinase kinase 2 (MAP2K2, Homo sapiens, UniProt P36507); value = 80%
target = Testis-specific serine/threonine-protein kinase 3 (TSSK3, Homo sapiens, UniProt Q96PN8); value = 100%
target = Phosphatidylinositol 4-phosphate 3-kinase C2 domain-containing subunit beta (PIK3C2B, Homo sapiens, UniProt O00750); value = 100%

Sample 4
Target: Tyrosine-protein kinase Yes (YES1, Homo sapiens, UniProt P07947)
Sequence of UniProt P07947 (whole entry, looked up): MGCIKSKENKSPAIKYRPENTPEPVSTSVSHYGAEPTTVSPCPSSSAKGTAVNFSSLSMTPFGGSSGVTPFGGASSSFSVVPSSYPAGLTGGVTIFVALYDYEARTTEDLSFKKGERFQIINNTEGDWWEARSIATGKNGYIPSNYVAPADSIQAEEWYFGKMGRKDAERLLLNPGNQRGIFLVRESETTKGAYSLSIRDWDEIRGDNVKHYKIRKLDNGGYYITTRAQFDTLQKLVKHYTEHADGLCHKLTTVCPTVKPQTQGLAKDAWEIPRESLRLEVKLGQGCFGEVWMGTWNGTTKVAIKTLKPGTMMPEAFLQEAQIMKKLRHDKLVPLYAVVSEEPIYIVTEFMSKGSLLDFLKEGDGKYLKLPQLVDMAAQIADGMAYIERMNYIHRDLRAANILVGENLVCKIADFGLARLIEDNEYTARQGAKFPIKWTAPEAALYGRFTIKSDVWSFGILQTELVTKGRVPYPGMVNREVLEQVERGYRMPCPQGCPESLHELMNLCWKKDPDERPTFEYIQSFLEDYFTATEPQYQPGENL
Read-out: enzyme activity
Action: inhibitor
Concentration: 0.5 µM
Baseline: control
Measurement: remaining activity
SMILES = N#CC(=C(N)Sc1ccc(N)cc1)c1ccccc1C(F)(F)F; value = 111%
SMILES = Cc1ccc(NC2=CC(=O)c3sc(C)nc3C2=O)cc1; value = 86.7%
SMILES = NC(=O)c1ccc(N(C(N)=O)c2c(F)cccc2F)nc1-c1ccc(F)cc1F; value = 97.8%
SMILES = CC(C)(C)n1nc(Cc2cccc3ccccc23)c2c(N)ncnc21; value = 18.6%
SMILES = CCc1[nH]c(-c2ccc(OC)cc2)nc1-c1ccncc1; value = 95.1%
SMILES = CC#CC(=O)Nc1cc2c(Nc3ccc(F)c(Cl)c3)ncnc2cn1; value = 82.3%
SMILES = Nc1nccc(-c2c(-c3ccc(F)cc3)ncn2C2CCNCC2)n1; value = 85.3%
SMILES = Nc1ncnc2c1cnn2-c1ccccc1; value = 93.7%
SMILES = COc1cc(Nc2c(C#N)cnc3cc(OCCCN4CCN(C)CC4)c(OC)cc23)c(Cl)cc1Cl; value = 7.29%
SMILES = COc1ccc(S(=O)(=O)N(CCO)c2ccccc2CN(C)CC=Cc2ccc(Cl)cc2)cc1; value = 103%
SMILES = Cc1cc(Nc2nc(-c3ccccc3)nc3ccccc23)n[nH]1; value = 20.4%
SMILES = O=S(=O)(NCCNC/C=C/c1ccc(Br)cc1)c1cccc2cnccc12; value = 91.6%
SMILES = CSc1nc(-c2ccnc(N[C@@H](C)c3ccccc3)c2)c(-c2ccc(F)cc2)[nH]1 (racemic); value = 91.8%
SMILES = CC(=O)c1ccc(N2CCOCC2)cc1O; value = 100%
SMILES = O=C1NC(=O)C(c2c[nH]c3ccccc23)=C1c1c[nH]c2ccccc12; value = 88.4%
SMILES = Cc1cncc2cccc(S(=O)(=O)N3CCCN(C(=O)CN)C[C@@H]3C)c12; value = 92%
SMILES = CCCC(=O)Oc1ccc2[nH]c(C(=O)c3cc4ccccc4[nH]3)cc2c1; value = 84.4%
SMILES = Fc1ccc(-c2nc3n(c2-c2ccncc2)CCS3)cc1; value = 99.4%
SMILES = CC[n+]1c(/C=C/N(C)c2ccccc2)n(-c2ccccc2)c2ccc(-c3nc4ccccc4s3)cc21; value = 94.9%
SMILES = O=C1Cc2c([nH]c3ccc([N+](=O)[O-])cc23)-c2ccccc2N1; value = 42.3%
SMILES = Oc1ccc(Nc2nc(-c3ccc(Cl)cc3)cs2)cc1; value = 99.2%
SMILES = Nc1nc(Nc2ccc(S(N)(=O)=O)cc2)nn1C(=O)c1c(F)cccc1F; value = 50.6%

Some of these lines once more (sample 4):
SMILES = Nc1nccc(-c2c(-c3ccc(F)cc3)ncn2C2CCNCC2)n1; value = 85.3%
SMILES = Nc1ncnc2c1cnn2-c1ccccc1; value = 93.7%
SMILES = COc1cc(Nc2c(C#N)cnc3cc(OCCCN4CCN(C)CC4)c(OC)cc23)c(Cl)cc1Cl; value = 7.29%
SMILES = COc1ccc(S(=O)(=O)N(CCO)c2ccccc2CN(C)CC=Cc2ccc(Cl)cc2)cc1; value = 103%
SMILES = Cc1cc(Nc2nc(-c3ccccc3)nc3ccccc23)n[nH]1; value = 20.4%
SMILES = O=S(=O)(NCCNC/C=C/c1ccc(Br)cc1)c1cccc2cnccc12; value = 91.6%
SMILES = CSc1nc(-c2ccnc(N[C@@H](C)c3ccccc3)c2)c(-c2ccc(F)cc2)[nH]1 (racemic); value = 91.8%
SMILES = CC(=O)c1ccc(N2CCOCC2)cc1O; value = 100%
SMILES = O=C1NC(=O)C(c2c[nH]c3ccccc23)=C1c1c[nH]c2ccccc12; value = 88.4%
SMILES = Cc1cncc2cccc(S(=O)(=O)N3CCCN(C(=O)CN)C[C@@H]3C)c12; value = 92%
SMILES = CCCC(=O)Oc1ccc2[nH]c(C(=O)c3cc4ccccc4[nH]3)cc2c1; value = 84.4%
SMILES = Fc1ccc(-c2nc3n(c2-c2ccncc2)CCS3)cc1; value = 99.4%
SMILES = CC[n+]1c(/C=C/N(C)c2ccccc2)n(-c2ccccc2)c2ccc(-c3nc4ccccc4s3)cc21; value = 94.9%
